Assay results pooled from the literature.
Every numbered part comes from another study and shows a few of its results, in no order.

Block 1
Target: Replicase polyprotein 1ab, polymerase (rep, Severe acute respiratory syndrome coronavirus 2, UniProt P0DTD1)
Observed: enzyme activity
Action: inhibitor
Concentration: 20 µM
The inhibition of `CC(C)c1cc2c(cc1S(=O)(=O)O)[C@@]1(C)CCC[C@@](C)(C(=O)O)[C@@H]1CC2` is reported as -1.74%.
For `O=C(NC1(c2ccccc2)CC1)c1c(CN2CCC(N3CCCCC3)CC2)c(-c2cccc(C(F)(F)F)c2)nc2cc(Br)ccc12`, the inhibition was -0.9%.
`CC(C)(C)NC[C@H](O)COc1nsnc1N1CCOCC1` gave an inhibition of -4.79%.
`C[C@@H]1COCCN1c1cc(C2(S(C)(=O)=O)CC2)nc(-c2cccc3[nH]ccc23)n1` has an inhibition of 1.27%.
`CC1(C)Cc2c(-c3ccccc3)c(-c3ccc(Cl)cc3)c(CC(=O)O)n2C1` has an inhibition of -7.39%.
The inhibition of `CCn1cc(C(=O)O)c(=O)c2cc(F)c(N3CCNC(C)C3)c(F)c21` (centres unmarked) is reported as 13.6%.
`CN(C)CCC(c1ccc(Br)cc1)c1ccccn1` (centres unmarked) gave an inhibition of -7.76%.
The inhibition of `Cc1cccc(-c2[nH]c(C(C)(C)C)nc2-c2ccc3c(c2)OCO3)n1` is reported as 0.64%.
The inhibition of `Cc1nc2ccc(NC(=O)Nc3ccnc4cccnc34)cc2o1` is reported as 6.16%.
`N#CCCCSC(=N)N` has an inhibition of -2.56%.
The inhibition of `N#Cc1ccc(Cn2cncc2CN2CCN(c3cccc(Cl)c3)C(=O)C2)cc1` is reported as 7.51%.
The inhibition of `COc1ccc(C(=O)NCc2ccc(OCCN(C)C)cc2)cc1OC` is reported as -9.82%.
With `Clc1cccc(N2CCNCC2)c1` the inhibition was 3.75%.
`CC(=O)Nc1ccc(OC[C@](C)(O)C(=O)Nc2ccc([N+](=O)[O-])c(C(F)(F)F)c2)cc1` gave an inhibition of 0.34%.
With `CN1CCC[C@H]1c1cccnc1` the inhibition was 5.14%.
The inhibition of `COc1cc2ncnc(Nc3ccc(Oc4ccccc4)cc3)c2cc1OC` is reported as -5.41%.
The inhibition of `C1=C2CCCN[C@H]2[C@@H]2C[C@H]1[C@H]1CCCCN1C2` is reported as 1.63%.
`S=C(NCCc1ccccn1)Nc1ccc(Br)cn1` gave an inhibition of 1.64%.
With `COc1ncc(-c2ccc3nccc(-c4ccnnc4)c3c2)cc1NS(=O)(=O)c1ccc(F)cc1F` the inhibition was 16.1%.
`c1ccc(CC2=NCCN2)cc1` has an inhibition of 18.2%.
With `CSCC1CN(/N=C/c2ccc([N+](=O)[O-])o2)C(=O)O1` (centres unmarked) the inhibition was -5.51%.
The inhibition of `CCOC(=O)[C@H](Cc1ccc([N+](=O)[O-])cc1)NC(=O)c1ccccc1` is reported as -1.18%.
`CC(=O)Nc1cccc(O)c1` gave an inhibition of 6.49%.
The inhibition of `Nc1cc(F)ccc1NC(=O)/C=C/c1cnn(C/C=C/c2ccccc2)c1` is reported as -0.15%.
`COc1ccc(Cl)cc1C(=O)NCCc1ccc(S(=O)(=O)NC(=O)NC2CCCCC2)cc1` gave an inhibition of -1.26%.

Block 2
Target: Replicase polyprotein 1ab, main protease (rep, Severe acute respiratory syndrome coronavirus 2, UniProt P0DTD1)
Observed: enzyme activity
Action: inhibitor
Concentration: 20 µM
Setting: primary screen
`CCCCCCNC(=O)n1cc(F)c(=O)[nH]c1=O` gave an inhibition of 101%.
With `Oc1c(I)cc(I)c(O)c1I` the inhibition was 99.7%.
The inhibition of `COc1ccc(OC)c2c(=S)c3ccccc3[nH]c12` is reported as 78.7%.

Block 3
Target: Interferon regulatory factor 7, full length, phosphomimetic (IRF7, Homo sapiens, UniProt Q92985, residues 1-503, S471D/S472D/S475D/S476D/S477D/S483D/S484D/S487D)
Chain of UniProt Q92985 (whole entry, unmodified, looked up): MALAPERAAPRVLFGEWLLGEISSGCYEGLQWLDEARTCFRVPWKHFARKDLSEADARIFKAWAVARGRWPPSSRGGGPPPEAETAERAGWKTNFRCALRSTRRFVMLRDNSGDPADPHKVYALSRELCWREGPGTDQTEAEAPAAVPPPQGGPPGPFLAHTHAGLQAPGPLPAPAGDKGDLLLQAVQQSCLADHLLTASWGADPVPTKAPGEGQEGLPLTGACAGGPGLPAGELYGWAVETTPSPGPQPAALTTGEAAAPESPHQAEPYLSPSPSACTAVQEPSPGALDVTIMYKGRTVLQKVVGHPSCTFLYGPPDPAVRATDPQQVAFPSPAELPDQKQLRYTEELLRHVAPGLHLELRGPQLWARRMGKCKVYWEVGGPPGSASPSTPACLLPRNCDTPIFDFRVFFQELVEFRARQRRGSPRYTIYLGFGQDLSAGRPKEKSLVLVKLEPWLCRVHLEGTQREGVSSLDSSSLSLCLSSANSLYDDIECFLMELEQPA
Method: protein-binding microarray
Molecule type: double-stranded DNA, one strand shown
Matrix: in vitro
Concentration: 2200 nM top
Setting: 60-bp whole probe
Added: salmon DNA 0.4 mg/ml
Relative to: random background probes
Reading: higher = stronger binding
Constant ends, left off below: GCCTAGCAC … GTCTTGATTCGCTTGACGCTGCTG
`GACGGTCTCCTACTGGTGACGTGCTAG` — result for “fitted relative affinity”: 0.0604 z-score.
`GACGGTCTCCTATTGCTGACGTGCTAG` — result for “fitted relative affinity”: 0.817 z-score.
`GACGAACTGTGGACTGGAGACGTGCTA`: “fitted relative affinity” -0.236 z-score.
`TTAGATTGCAGACTGGATTAGTGCTAG`: “fitted relative affinity” -0.274 z-score.
For `CGAGTTTCCATTTTCTGAATGTGCTAG`, “fitted relative affinity” read 6.06 z-score.
For `TTAGGATTCGGACTGGGTTAGTGCTAG`, “fitted relative affinity” read 0.238 z-score.
Under “fitted relative affinity”, `TCAGGTTCAGATATAGGACTGTGCTAG` is recorded as 0.289 z-score.
For `GACGGTTTCGACTTTCGGGAGGTGCTA`, “fitted relative affinity” read 7.87 z-score.

Block 4
Target: Sal-like protein 4, full length isoform A (SALL4, Homo sapiens, UniProt Q9UJQ4, residues 1-1053)
Chain of UniProt Q9UJQ4 (whole entry, looked up): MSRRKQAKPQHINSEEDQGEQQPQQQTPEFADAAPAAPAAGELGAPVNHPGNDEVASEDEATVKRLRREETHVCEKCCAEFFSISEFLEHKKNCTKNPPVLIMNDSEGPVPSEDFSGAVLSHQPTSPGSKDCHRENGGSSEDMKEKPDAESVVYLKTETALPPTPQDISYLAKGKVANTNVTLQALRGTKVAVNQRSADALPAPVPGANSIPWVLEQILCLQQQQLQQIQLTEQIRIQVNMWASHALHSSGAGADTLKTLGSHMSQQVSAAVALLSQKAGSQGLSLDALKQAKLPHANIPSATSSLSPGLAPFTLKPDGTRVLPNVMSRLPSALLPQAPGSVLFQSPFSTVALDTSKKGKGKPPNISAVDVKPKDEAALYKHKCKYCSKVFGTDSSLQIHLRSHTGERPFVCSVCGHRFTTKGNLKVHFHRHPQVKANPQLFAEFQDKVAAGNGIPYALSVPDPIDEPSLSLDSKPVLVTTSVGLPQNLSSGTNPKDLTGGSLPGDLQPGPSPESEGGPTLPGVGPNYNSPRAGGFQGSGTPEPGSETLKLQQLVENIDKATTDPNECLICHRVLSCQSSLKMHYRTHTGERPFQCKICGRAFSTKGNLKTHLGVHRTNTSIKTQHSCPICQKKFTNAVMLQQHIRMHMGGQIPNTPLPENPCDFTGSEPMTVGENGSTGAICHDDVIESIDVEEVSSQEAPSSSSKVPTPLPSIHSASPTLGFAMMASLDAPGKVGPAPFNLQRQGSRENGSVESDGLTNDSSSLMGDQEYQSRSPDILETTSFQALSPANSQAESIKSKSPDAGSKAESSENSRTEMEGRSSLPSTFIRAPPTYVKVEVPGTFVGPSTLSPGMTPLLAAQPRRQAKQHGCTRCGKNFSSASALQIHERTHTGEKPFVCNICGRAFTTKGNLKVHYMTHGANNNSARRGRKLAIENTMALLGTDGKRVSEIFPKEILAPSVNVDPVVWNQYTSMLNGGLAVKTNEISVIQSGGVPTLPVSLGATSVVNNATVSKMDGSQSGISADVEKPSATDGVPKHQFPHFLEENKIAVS
Method: universal PBM
Molecule type: double-stranded DNA, one strand shown
Matrix: in vitro
Concentration: 600 nM
Setting: 8-mer, flanks averaged, mean of replicates
Reading: higher = stronger binding
The E-score of `ACGATCCG` is reported as -0.205.
For `ACTATTAG`, the E-score was 0.158.
`CACGTAAA` has an E-score of 0.156.
The E-score of `CAAATGCC` is reported as -0.194.
The E-score of `GAAGAACC` is reported as -0.173.
For `CAACGATC`, the E-score was -3.5e-05.
For `AAGCCGGC`, the E-score was -0.376.
`TAGGGACA` has an E-score of 0.0612.

Block 5
Cell line: HEK-293T-ACE2
Concentration: concentration not given
Relative to: vehicle
For `O=C([O-])/C=C/C(=O)[O-].[Fe+2]`, the cell number was 92.6%.
The cell number of `Cc1ccc([C@@H]2O[C@H](CO)[C@@H](O)[C@H](O)[C@H]2O)cc1Cc1ccc(-c2ccc(F)cc2)s1` is reported as 97.3%.
With `CN[C@H]1C(=O)N[C@@H]2Cc3ccc(cc3)Oc3cc4cc(c3O[C@@H]3O[C@H](C(=O)O)[C@@H](O)[C@H](O)[C@H]3NC(=O)CCCCCCCCC(C)C)Oc3ccc(cc3Cl)[C@@H](O)[C@@H]3NC(=O)[C@H](NC(=O)[C@@H]4NC(=O)[C@@H](NC2=O)c2cc(cc(O)c2Cl)Oc2cc1ccc2O)c1ccc(O)c(c1)-c1c(O[C@H]2O[C@H](CO)[C@@H](O)[C@H](O)[C@@H]2O)cc(O)cc1[C@@H](C(=O)O)NC3=O` the cell number was 95.8%.
For `COS(=O)(=O)[O-].C[N+]1(C)CCC(=C(c2ccccc2)c2ccccc2)CC1`, the cell number was 103%.

Block 6
Target: Histone acetyltransferase KAT6A, winged helix 1, GST fusion (KAT6A, Homo sapiens, UniProt Q92794, residues 1-85)
Method: protein binding microarray
Molecule type: double-stranded DNA, one strand shown
Matrix: in vitro
Concentration: not given
Setting: 8-mer, flanks averaged, mean of 2 arrays, mostly near background
Relative to: not given
Reading: higher = stronger binding
Residues (chain): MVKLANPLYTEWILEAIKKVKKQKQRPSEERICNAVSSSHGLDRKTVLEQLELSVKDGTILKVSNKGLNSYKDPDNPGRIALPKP
`ACGGCCCC` gave an E-score of 0.327.
`AGGTCTTA` has an E-score of -0.133.
The E-score of `AGTTATGC` is reported as -0.0069.
The E-score of `AGCAGTCC` is reported as -0.0709.
`CCAACACG` gave an E-score of -0.0676.
For `ACAATAAA`, the E-score was -0.162.
With `AAGAAGGG` the E-score was -0.216.
For `CGATGGAG`, the E-score was 0.146.

Some of these lines once more (block 4):
The E-score of `ACGATCCG` is reported as -0.205.
For `CAACGATC`, the E-score was -3.5e-05.
For `AAGCCGGC`, the E-score was -0.376.
`CACGTAAA` has an E-score of 0.156.
`TAGGGACA` has an E-score of 0.0612.
The E-score of `CAAATGCC` is reported as -0.194.
The E-score of `GAAGAACC` is reported as -0.173.
For `ACTATTAG`, the E-score was 0.158.
